Measurements of several laboratories.
A part holds a random share of what one study measured. Values joined by “and” are separate records of one study, mostly repeats; a detail may differ.
Chain of UniProt P23458 (whole entry, looked up): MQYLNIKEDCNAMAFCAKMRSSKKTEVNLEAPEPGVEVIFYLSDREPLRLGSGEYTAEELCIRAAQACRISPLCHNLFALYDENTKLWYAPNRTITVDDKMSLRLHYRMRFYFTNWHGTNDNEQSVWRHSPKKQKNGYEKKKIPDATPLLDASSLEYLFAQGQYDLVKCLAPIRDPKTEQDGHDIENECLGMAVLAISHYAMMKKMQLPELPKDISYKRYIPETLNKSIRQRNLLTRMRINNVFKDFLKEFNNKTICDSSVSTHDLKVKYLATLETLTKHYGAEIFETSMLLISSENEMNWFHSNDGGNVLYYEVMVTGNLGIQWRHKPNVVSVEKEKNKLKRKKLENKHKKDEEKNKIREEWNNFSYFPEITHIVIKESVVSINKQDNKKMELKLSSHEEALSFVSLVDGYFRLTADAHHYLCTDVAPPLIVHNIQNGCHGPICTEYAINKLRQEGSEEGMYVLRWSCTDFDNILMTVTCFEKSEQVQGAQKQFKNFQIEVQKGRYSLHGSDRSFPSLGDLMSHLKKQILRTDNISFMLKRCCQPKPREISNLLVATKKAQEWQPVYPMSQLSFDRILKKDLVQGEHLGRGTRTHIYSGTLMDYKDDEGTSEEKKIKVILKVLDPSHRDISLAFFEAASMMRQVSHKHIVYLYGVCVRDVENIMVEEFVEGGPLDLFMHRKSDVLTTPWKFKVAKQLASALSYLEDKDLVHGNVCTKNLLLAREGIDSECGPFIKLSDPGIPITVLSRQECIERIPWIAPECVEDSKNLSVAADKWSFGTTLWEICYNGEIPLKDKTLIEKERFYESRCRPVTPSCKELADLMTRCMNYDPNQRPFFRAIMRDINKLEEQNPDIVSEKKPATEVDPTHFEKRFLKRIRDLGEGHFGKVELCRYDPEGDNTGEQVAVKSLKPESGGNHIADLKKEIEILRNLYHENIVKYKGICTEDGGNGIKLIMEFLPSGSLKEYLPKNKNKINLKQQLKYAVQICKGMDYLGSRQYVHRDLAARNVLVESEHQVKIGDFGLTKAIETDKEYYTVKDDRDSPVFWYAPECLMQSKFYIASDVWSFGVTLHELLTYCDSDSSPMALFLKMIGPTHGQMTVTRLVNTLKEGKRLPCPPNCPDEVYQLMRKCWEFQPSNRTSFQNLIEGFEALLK
Chain of UniProt P53355 (whole entry, looked up): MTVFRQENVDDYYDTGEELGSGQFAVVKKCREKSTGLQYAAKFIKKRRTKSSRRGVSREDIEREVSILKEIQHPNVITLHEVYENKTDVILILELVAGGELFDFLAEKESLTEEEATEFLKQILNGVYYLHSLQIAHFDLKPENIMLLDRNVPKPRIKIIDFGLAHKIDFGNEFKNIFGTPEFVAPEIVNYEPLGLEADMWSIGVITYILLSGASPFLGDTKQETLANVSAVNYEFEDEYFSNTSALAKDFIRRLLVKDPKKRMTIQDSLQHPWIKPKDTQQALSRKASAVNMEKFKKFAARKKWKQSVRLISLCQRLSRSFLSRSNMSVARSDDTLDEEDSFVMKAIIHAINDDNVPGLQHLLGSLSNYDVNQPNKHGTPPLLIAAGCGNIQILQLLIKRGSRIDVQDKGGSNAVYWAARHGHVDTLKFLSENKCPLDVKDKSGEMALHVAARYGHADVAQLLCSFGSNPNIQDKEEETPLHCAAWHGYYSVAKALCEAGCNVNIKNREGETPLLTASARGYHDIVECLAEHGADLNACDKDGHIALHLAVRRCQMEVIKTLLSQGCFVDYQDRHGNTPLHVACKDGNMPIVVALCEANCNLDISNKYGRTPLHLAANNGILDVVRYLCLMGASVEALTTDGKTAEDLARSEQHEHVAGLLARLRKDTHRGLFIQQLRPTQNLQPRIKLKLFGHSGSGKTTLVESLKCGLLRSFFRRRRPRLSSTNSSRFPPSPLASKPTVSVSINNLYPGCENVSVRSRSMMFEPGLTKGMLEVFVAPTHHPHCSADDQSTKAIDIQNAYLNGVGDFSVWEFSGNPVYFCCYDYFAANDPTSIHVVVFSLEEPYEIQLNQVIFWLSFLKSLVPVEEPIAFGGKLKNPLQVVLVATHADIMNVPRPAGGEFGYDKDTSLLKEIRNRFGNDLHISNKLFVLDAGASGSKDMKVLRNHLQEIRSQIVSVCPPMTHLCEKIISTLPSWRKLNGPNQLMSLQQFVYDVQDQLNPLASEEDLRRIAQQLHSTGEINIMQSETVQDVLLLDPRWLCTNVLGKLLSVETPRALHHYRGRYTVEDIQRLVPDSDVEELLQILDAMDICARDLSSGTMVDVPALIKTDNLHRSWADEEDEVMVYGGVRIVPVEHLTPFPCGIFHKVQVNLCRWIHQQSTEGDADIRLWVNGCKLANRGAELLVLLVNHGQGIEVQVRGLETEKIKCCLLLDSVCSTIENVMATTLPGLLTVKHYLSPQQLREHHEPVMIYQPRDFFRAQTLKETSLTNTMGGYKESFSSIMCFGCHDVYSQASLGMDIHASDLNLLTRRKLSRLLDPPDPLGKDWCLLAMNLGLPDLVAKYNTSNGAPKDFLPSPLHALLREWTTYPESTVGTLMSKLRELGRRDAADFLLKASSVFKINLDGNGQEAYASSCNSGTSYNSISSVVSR
Chain of UniProt Q9UIK4 (whole entry, looked up): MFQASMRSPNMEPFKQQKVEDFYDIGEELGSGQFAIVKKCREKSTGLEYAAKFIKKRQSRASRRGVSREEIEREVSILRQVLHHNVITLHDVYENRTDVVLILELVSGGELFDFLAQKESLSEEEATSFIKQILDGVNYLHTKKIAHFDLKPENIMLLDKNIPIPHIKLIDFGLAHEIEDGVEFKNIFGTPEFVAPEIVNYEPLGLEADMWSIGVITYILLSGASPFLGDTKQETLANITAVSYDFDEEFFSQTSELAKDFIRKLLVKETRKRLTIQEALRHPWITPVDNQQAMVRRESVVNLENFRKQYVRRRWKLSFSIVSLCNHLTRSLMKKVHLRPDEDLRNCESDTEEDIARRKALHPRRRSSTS
Chain of UniProt Q15831 (whole entry, looked up): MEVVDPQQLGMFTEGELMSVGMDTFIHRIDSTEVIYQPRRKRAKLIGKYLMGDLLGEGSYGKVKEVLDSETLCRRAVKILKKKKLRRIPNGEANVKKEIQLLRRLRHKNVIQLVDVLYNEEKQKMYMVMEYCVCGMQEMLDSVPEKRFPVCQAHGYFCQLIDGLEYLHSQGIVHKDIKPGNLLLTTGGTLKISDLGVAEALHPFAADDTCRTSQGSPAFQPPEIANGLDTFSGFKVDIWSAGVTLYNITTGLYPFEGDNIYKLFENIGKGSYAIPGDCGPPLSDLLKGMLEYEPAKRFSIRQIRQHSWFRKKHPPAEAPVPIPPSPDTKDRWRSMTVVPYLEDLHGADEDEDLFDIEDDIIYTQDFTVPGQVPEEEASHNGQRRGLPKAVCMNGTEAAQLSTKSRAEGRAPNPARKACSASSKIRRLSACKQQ
Chain of UniProt O94804 (whole entry, looked up): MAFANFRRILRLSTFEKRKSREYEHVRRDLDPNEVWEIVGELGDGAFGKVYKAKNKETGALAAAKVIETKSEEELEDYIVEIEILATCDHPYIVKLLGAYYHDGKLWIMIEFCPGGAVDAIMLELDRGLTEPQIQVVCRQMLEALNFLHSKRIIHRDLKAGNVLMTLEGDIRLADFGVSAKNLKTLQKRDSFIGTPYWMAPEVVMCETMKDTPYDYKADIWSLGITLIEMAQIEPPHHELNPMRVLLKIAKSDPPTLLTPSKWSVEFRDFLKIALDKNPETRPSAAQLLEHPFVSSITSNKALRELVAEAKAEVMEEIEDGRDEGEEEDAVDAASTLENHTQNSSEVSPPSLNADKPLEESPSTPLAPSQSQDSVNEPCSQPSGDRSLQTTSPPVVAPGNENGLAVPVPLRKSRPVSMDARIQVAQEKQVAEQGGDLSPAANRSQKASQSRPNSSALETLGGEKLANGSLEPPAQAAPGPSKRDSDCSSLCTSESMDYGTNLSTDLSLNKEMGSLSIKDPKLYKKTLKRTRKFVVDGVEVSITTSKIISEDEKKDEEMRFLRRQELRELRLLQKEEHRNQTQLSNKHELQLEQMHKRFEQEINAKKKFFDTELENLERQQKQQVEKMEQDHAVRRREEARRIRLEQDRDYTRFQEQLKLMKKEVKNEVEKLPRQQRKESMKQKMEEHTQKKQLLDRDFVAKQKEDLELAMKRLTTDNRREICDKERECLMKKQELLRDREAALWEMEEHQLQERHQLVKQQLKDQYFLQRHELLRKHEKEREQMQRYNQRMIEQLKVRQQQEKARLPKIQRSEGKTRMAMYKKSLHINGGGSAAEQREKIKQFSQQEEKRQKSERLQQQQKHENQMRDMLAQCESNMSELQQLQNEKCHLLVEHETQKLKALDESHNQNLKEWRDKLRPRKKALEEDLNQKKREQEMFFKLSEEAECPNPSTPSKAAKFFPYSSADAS
Chain of UniProt P54646 (whole entry, looked up): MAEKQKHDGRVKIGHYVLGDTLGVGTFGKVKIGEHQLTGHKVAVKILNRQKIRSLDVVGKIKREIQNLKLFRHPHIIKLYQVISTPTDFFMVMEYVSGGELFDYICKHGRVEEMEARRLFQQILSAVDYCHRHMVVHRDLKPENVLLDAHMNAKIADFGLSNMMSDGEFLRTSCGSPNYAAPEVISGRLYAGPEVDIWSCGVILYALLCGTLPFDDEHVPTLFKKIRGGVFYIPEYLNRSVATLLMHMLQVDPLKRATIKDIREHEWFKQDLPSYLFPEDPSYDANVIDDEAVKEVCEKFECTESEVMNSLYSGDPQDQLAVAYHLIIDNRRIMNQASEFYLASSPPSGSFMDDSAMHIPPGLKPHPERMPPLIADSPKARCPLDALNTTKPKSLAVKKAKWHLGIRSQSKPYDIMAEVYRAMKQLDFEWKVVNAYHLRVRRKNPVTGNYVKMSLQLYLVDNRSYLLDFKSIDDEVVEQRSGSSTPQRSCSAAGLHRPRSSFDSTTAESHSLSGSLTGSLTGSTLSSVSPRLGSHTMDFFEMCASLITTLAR

Sample 1 — SMILES: Fc1ccc(-c2nc3n(c2-c2ccncc2)CCS3)cc1; read-out: enzyme activity; action: inhibitor; tested at: 0.5 µM; baseline: control; endpoint: remaining activity
G protein-coupled receptor kinase 3 (GRK3, Homo sapiens, UniProt P35626): 95%
Cyclin-dependent kinase 4, with cyclin D1 (CDK4, Homo sapiens, UniProt P11802): 114%
TGF-beta receptor type-1 (TGFBR1, Homo sapiens, UniProt P36897): 106%
Serine/threonine-protein kinase 10 (STK10, Homo sapiens, UniProt O94804): 94.9%
Tyrosine-protein kinase Lyn, isoform B (LYN, Homo sapiens, UniProt P07948): 106%
Death-associated protein kinase 1 (DAPK1, Homo sapiens, UniProt P53355): 100%
TGF-beta receptor type-2 (TGFBR2, Homo sapiens, UniProt P37173): 137%
Serine/threonine-protein kinase STK11 (STK11, Homo sapiens, UniProt Q15831): 93.8%
cGMP-dependent protein kinase 1, isoform beta (PRKG1, Homo sapiens, UniProt Q13976): 95.9%
Death-associated protein kinase 2 (DAPK2, Homo sapiens, UniProt Q9UIK4): 113%
Serine/threonine-protein kinase Nek2 (NEK2, Homo sapiens, UniProt P51955): 115%
Cyclin-dependent kinase 5, with p25 (CDK5, Homo sapiens, UniProt Q00535): 98.2%

Sample 2 — Compound: CC(C)(O)c1cncc(-c2nc3ccc(F)cc3n2C2CC2)c1; technique: competition with immobilised ligand; tested at: 1 µM; endpoint: remaining binding
Ephrin type-B receptor 4 (EPHB4, Homo sapiens, UniProt P54760); cell-free assay: 100%
Tyrosine-protein kinase JAK1, JH1 (JAK1, Homo sapiens, UniProt P23458); cell-free assay: 100%
Tyrosine-protein kinase ABL1, phosphorylated (ABL1, Homo sapiens, UniProt P00519, E255K); binding: 100%
Mitogen-activated protein kinase 12 (MAPK12, Homo sapiens, UniProt P53778); cell-free assay: 88%
Testis-specific serine/threonine-protein kinase 3 (TSSK3, Homo sapiens, UniProt Q96PN8); cell-free assay: 84%
Serine/threonine-protein kinase pim-2 (PIM2, Homo sapiens, UniProt Q9P1W9); cell-free assay: 100%
Phosphorylase b kinase gamma catalytic chain, skeletal muscle/heart isoform (PHKG1, Homo sapiens, UniProt Q16816); cell-free assay: 100%
Cyclin-dependent kinase 16 (CDK16, Homo sapiens, UniProt Q00536); cell-free assay: 100%
Serine/threonine-protein kinase Nek9 (NEK9, Homo sapiens, UniProt Q8TD19); cell-free assay: 100%
5'-AMP-activated protein kinase catalytic subunit alpha-2 (PRKAA2, Homo sapiens, UniProt P54646); cell-free assay: 100%
Mitogen-activated protein kinase kinase kinase 2 (MAP3K2, Homo sapiens, UniProt Q9Y2U5); cell-free assay: 100%
Myosin-IIIa (MYO3A, Homo sapiens, UniProt Q8NEV4); cell-free assay: 100%
Dual specificity mitogen-activated protein kinase kinase 3 (MAP2K3, Homo sapiens, UniProt P46734); cell-free assay: 100%
Microtubule-associated serine/threonine-protein kinase 1 (MAST1, Homo sapiens, UniProt Q9Y2H9); cell-free assay: 100%
Interleukin-1 receptor-associated kinase 1 (IRAK1, Homo sapiens, UniProt P51617); cell-free assay: 100%

Sample 3 — organism: Leishmania donovani; endpoint: inhibition
Compound: c1ccc(Oc2ccc(Nc3c4c(nc5ccccc35)CCC4)cc2)cc1
parasite killing; DD8, promastigotes; 1.66 µM, 48 h: 65% and 70%
parasite growth, high-content imaging; MHOM/IN/80/DD8, amastigotes in THP-1 cells; 40 µM: 100%
parasite killing; DD8, intracellular amastigotes; 4 µM, 48 h: 76% and 66% and 85%
parasite growth, high-content imaging; MHOM/IN/80/DD8, amastigotes in THP-1 cells; 8 µM: 100%

Other studies, line by line — cell line: L444P/L444P Gaucher fibroblasts; technique: 4-MUG hydrolysis in lysate; time: 72 h; baseline: vehicle
c1ccc2c(-c3nn4c(-c5ccncc5)nnc4s3)c[nH]c2c1 — enzyme activity (0.5 µM): 191% and 183% and 188% and 182% and 205% and 196% and 160% and 166%
O=C(COc1ccc(Cl)cc1)NC1CCC(NC(=O)COc2ccc(Cl)cc2)CC1 (stereo not drawn) — enzyme activity (0.2 µM): 116% and 126% and 125% and 111% and 123%
